Results pooled from the literature.
Each numbered part is a random draw from the data of one study; scales do not carry over between parts. Substitutions count along the parent as printed.

Sample 1
Target: UBE2D3 UBC core domain (UniProt P61077)
Chain of UniProt P61077 (whole entry, looked up): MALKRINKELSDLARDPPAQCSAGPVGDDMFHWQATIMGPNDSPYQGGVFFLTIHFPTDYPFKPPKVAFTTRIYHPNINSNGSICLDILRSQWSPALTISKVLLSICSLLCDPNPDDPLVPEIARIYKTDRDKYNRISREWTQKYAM
Technique: yeast two-hybrid
Medium: yeast
Setting: mostly zero background
Reference: not given
Direction: higher = stronger interaction
B1: SHPRH RING domain (UniProt Q149N8); chain KTSGGVNPEPCPICARQLGKQWAVLTCGHCFCNECISIIIEQYSVGSHRSSIKCAICRQTTSHKEISY
B2: PJA2 RING domain (UniProt O43164); chain DHTAIGQEQCCPICCSEYIKDDIATELPCHHFFHKPCVSIWLQKSGTCPVCRRHFPPAVIEA
B3: TRIM2 RING domain (UniProt Q9C040); chain VRQIDKQFLICSICLERYKNPKVLPCLHTFCERCLQNYIPAHSLTLSCPVCRQTSILPEKGV
B4: RFPL3 RING domain (UniProt O75679); chain MAALFQEASSCPVCSDYLEKPMSLECGCTVCLKCINSLQKEPHGEDLLCCCCSMVSQRNKIRP
B5: TRIM32 RING domain (UniProt Q13049); chain NLDALREVLECPICMESFTEEQLRPKLLHCGHTICRQCLEKLLASSINGVRCPFCSKITRITSLTQ
B6: TRIM74 RING domain (UniProt Q86UV6); chain SLLELEDWLQCPICLEVFKESLMLQCGHSYCKGCLVSLSYHLDTKVRCPMCWQVVDGSSSLP
B7: RNF32 RING domain (UniProt Q9H0A6); chain VQALRRETHECSICLAPLSAAGGQRVGAGRRSREMALLSCSHVFHHACLLALEEFSVGDRPPFHACPLCRSCYQKKILEC
B8: TRIM28 RING domain (UniProt Q13263); chain GAEALELLEHCGVCRERLRPEREPRLLPCLHSACSACLGPAAPAAANSSGDGGAAGDGTVVDCPVCKQQCFSKDIVE
B9: MARCHF2 RING domain (UniProt Q9P0N8); chain RLLSTVIRALDTPSDGPFCRICHEGANGECLLSPCGCTGTLGAVHKSCLEKWLSSSNTSYCELCHTEFAVEKRPRPLTEWL
For `B1 (SHPRH RING domain)`, “lacZ reporter activity” read 0.
`GSEEEEIPFRCFICRQAFQNPVVTKCRHYFCESCALEHFRATPRCYICDQPTGGIFNPA (RNF113B RING domain (UniProt Q8IZP6))` — result for “lacZ reporter activity”: 0.
For `B2 (PJA2 RING domain)`, “lacZ reporter activity” read 2670.
`MEEMEEELKCPVCGSFYREPIILPCSHNLCQACARNILVQTPESESPQSHRAAGSGVSDY (TRIM9 RING domain (UniProt Q9C026))`: “lacZ reporter activity” 0.
`B3 (TRIM2 RING domain)`: “lacZ reporter activity” 0.
`EIKDYKARLTCPCCNMRKKDAVLTKCFHVFCFECVKTRYDTRQRKCPKCNAAFGANDFHR (RNF20 RING domain (UniProt Q5VTR2))` — result for “lacZ reporter activity”: 0.
`B4 (RFPL3 RING domain)` — result for “lacZ reporter activity”: 0.
`KITELNPHLMCALCGGYFIDATTIVECLHSFCKTCIVRYLETNKYCPMCDVQVHKTRPLL (PCGF2 RING domain (UniProt P35227))`: “lacZ reporter activity” 0.
Under “lacZ reporter activity”, `VPADASPDSKCPICLDRFDNVSYLDRCLHKFCFRCVQEWSKNKAECPLCKQPFDSIFHSV (TOPORS RING domain (UniProt Q9NS56))` is recorded as 16700.
For `B5 (TRIM32 RING domain)`, “lacZ reporter activity” read 0.
For `B6 (TRIM74 RING domain)`, “lacZ reporter activity” read 0.
For `B7 (RNF32 RING domain)`, “lacZ reporter activity” read 0.
`B8 (TRIM28 RING domain)`: “lacZ reporter activity” 0.
Under “lacZ reporter activity”, `PLRRLQEEKLCKICMDRHIAVVFIPCGHLVTCKQCAEAVDRCPMCSAVIDFKQRVF (BIRC8 RING domain (UniProt Q96P09))` is recorded as 0.
`B9 (MARCHF2 RING domain)`: “lacZ reporter activity” 0.

Sample 2
Target: HLA class I histocompatibility antigen, A alpha chain, allele A*25:01 (Homo sapiens, UniProt P04439)
Read-out: peptide-MHC binding
Form: peptide
Tested at: concentration not given
`MTFPVSLEY`: binding “active”.
Under binding, `VLWKSYPLV` is recorded as “inactive”.
Under binding, `YRATYSMAL` is recorded as “inactive”.
Under binding, `TEWPQLKVA` is recorded as “inactive”.
`KQGDVFYTA`: binding “inactive”.
For `RGYVWTNGY`, binding read “inactive”.

Sample 3
Target: CCNB1, cyclin fold, Cln2 fusion (human)
Technique: yeast growth competition, sequencing
Medium: yeast
Setting: strong parent motif
Reference: not given
Direction: higher = stronger binding
Starting sequence: viral docking peptide; KGVKRKLFAEDSS; partner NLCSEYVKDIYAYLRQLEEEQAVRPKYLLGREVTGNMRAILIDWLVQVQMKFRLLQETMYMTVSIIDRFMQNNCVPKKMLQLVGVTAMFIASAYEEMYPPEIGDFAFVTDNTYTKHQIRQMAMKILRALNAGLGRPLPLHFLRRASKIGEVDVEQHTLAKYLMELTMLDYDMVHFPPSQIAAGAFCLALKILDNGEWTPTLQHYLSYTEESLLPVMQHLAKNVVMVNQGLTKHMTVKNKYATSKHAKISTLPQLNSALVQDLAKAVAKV
`F8H` — result for “normalised enrichment score”: -0.00615.
`A9V`: “normalised enrichment score” 2.16.
`K6A`: “normalised enrichment score” 2.03.
`R5I`: “normalised enrichment score” 0.926.
`D11F` — result for “normalised enrichment score”: 0.985.

Sample 4
Target: RING finger protein unkempt homolog, zinc fingers 1-6, GST-SBP tag (UNK, Homo sapiens, UniProt Q9C0B0, residues 30-357)
Technique: RNA Bind-n-Seq
Form: RNA
Medium: in vitro
Tested at: not given
Setting: RNA with constant flanks, human and mouse sites, ends assumed
Reference: input RNA pool
Direction: higher = stronger binding
Target sequence (chain): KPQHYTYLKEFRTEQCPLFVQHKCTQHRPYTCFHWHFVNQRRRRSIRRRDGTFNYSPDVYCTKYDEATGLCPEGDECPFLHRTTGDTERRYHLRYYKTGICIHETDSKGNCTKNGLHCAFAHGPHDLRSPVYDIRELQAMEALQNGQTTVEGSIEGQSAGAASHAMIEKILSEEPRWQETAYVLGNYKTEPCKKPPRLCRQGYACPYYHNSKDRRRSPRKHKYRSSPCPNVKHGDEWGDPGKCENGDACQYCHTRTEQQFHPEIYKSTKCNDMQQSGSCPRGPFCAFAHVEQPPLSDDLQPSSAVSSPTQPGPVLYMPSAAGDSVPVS
The bound/input enrichment of `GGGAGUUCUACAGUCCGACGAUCCAGAGAUGUUUCCCUGACUUCUCUACCAAAAAUGGCACUUUAACAAUAGGAAGUAAGAUGAUGUUUCAAGAUGGAAAUGGAGGGACAAGAAGUGUUGUAGAACUCGGGAUUGCUGCAAAUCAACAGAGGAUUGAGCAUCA` is reported as 0.579 ratio.
The bound/input enrichment of `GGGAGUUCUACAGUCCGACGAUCAUUUUUUUUUUUAAAUGUGUGUAGACUGUAACUUUCUUUUCAGUUCGUAUGCAGAACAUAUUUAGCCAUUACCCAUGCAACACCACCCGAUAUAUUACUGAUUUAGAAGCAAAGAUUUCACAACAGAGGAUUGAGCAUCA` is reported as 9.91 ratio.
With `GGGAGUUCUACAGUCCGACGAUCAAUUUUAAAUUUGUGUGGGCCUGUUUCAAUAGAUACUAUGGUGCCAUUUCAAAAUUAAAAAGUCAGCACCAAGAAGACCCAAAUAACACUUCACUUUUAACAAAUAAACCAGCGCUUCUUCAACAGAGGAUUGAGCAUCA` the bound/input enrichment was 0.828 ratio.
For `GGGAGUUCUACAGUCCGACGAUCAGCAAACUACUGAUUGAAUCUCUUGAAAAAUAUGUGGUAUUGUGUGAAUCUCCACAGGAUAAAAGAACACUUCUUGUGAAUUGUCAGAAUAAGAGUCUUUCACAGUCUUUUGAAAAUCUUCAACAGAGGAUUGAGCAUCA`, the bound/input enrichment was 0.0688 ratio.
`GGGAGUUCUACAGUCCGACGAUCGUUCCAGGAGAGACUCAAGGUGACAGUUACUUUACUGGAAAGAAAACUAUUGAAACAGUGAAAGCAGCUGAGAGGAUUAUGGAGGCUAUUGAGUUGUACCGAGAAGAAACUGCAAAAAUGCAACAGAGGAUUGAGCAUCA` has a bound/input enrichment of 0.269 ratio.
`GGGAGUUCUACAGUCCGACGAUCAAGGAAGCACGCAAGCGCCGUGAAGAGCGCCUCCAGGCCAAGAAGGAGGAGAUCAUCAAGACUUUAUCCAAGGAGGAAGAGACCAAGAAAUAAAACCUCCCACUUUGUCUGUACAUACUGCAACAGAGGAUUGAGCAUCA` gave a bound/input enrichment of 0.107 ratio.
`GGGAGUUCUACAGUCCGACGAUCUGAAGUGUUGAGUGGCAGUGUUCCCUAUGGCCCAUCCCCAAAACCUGUGCACCAAAGCUUUAUUUAUGUCCCCAGUGUUGUCCCAAAGGCCACCAUGGACACCAGAGCACACCGACUGGCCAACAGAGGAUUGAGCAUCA` has a bound/input enrichment of 0.1 ratio.
With `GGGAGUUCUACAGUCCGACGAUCUUUCUUUUUAUUUUUUAAUUUUCUCCAGUCCCUGGGAGCAAGUUGCAGUCCUUUCCUCCCUGUCCCUCUGUGCUCAGUCGCCCUGUUUUGAGGUCUCAACAUCAUGGUUCUCAAUUAAUUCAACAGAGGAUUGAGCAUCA` the bound/input enrichment was 4.64 ratio.

For quick reference, copied from above (sample 1):
`B9 (MARCHF2 RING domain)`: “lacZ reporter activity” 0.
For `B7 (RNF32 RING domain)`, “lacZ reporter activity” read 0.
Under “lacZ reporter activity”, `VPADASPDSKCPICLDRFDNVSYLDRCLHKFCFRCVQEWSKNKAECPLCKQPFDSIFHSV (TOPORS RING domain (UniProt Q9NS56))` is recorded as 16700.
`B8 (TRIM28 RING domain)`: “lacZ reporter activity” 0.
